# Measured values of several laboratories.
# Compare with care: the assays were run in different laboratories. Numbers after ± are the reported error.
SMILES,assay,test system,setting,tissue uptake
C[C@H](O)[C@@H](NC(=O)[C@H]1CCCN1C(=O)[C@@H](CCCCN)NC(=O)[C@@H](CO)NC(=O)[C@@H](Cc1ccc(O)cc1)NC(=O)[C@@H](CC(N)=O)NC(=O)CCOCCOCCOCCNC(=O)CN1CCN(CC(=O)O)CCN(CC(=O)O)CCN(CC(=O)O)CC1)C(=O)N[C@H](CC(=O)O)C(=O)N[C@H](CCCNC(=N)N)C(=O)N[C@H](CCC(N)=O)C(=O)N[C@H](Cc1ccc(O)cc1)C(=O)N[C@H](Cc1c[nH]cn1)C(=O)N[C@H](Cc1ccccc1)C(N)=O [copper-64 labelled],,"C57BL/6J mice, lung","intravenous, 1.85 MBq, 0.3333 h, radiolabelled",1.78 ± 0.29 %ID/g
CSCC[C@H](NC(=O)CNC(=O)[C@H](CCCCN)NC(=O)[C@H](CC(C)C)NC(=O)[C@@H]1CCCN1C(=O)[C@H](CO)NC(=O)[C@H](Cc1c[nH]cn1)NC(=O)[C@H](Cc1c[nH]c2ccccc12)NC(=O)[C@H](CCCNC(=N)N)NC(=O)[C@H](CC(C)C)NC(=O)[C@H](CCCNC(=N)N)NC(=O)[C@H](Cc1c[nH]c2ccccc12)NC(=O)[C@H](CS)NC(=O)CCCCCNC(=O)CN1CCN(CC(=O)O)CCN(CC(=O)O)CCN(CC(=O)O)CC1)C(=O)O [copper-64 labelled],PET imaging,"BALB/c nude mice, tumor","intravenous, dose not given, 4 h, Huh-7 tumour-bearing",2.19 ± 0.2 %ID/g
CC(C)C[C@@H](NC(=O)[C@@H](CCCNC(=N)N)NC(=O)[C@@H](Cc1c[nH]cn1)NC(=O)[C@@H](Cc1c[nH]c2ccccc12)NC(=O)[C@@H](Cc1c[nH]cn1)NC(=O)[C@@H](Cc1ccccc1)NC(=O)[C@H](NC(=O)[C@@H](Cc1ccc(O)cc1)NC(=O)CNC(=O)CNC(=O)CCOCCOCCOCCNC(=O)CN1CCN(CC(=O)O)CCN(CC(=O)O)CC1)[C@H](C)O)C(=O)N[C@H](CC(N)=O)C(=O)N1CCC[C@@H]1C(=O)O [gallium-68 labelled],,"C57BL/6 mice, male, intestines","intravenous, 1.85 MBq, 60 min, added: blocking antibody",0.78 ± 0.36 %ID/g
CC[C@H](C)[C@H](NC(=O)[C@H](CCCNC(=N)N)NC(=O)[C@H](CCCCN)NC(=O)[C@H](Cc1ccc(O)cc1)NC(=O)[C@H](CC(=O)O)NC(=O)[C@H](C)NC(=O)CNC(=O)CCOCCOCCOCCNC(=O)CN1CCN(CC(=O)O)CCN(CC(=O)O)CCN(CC(=O)O)CC1)C(=O)N[C@H](C(=O)N[C@H](C(=O)N[C@@H](CCCCN)C(=O)N[C@H](C(=O)N[C@@H](CC(N)=O)C(N)=O)C(C)C)C(C)C)[C@@H](C)O [copper-64 labelled],ex vivo gamma counting,"C57BL/6J male mice, B16-F10 tumour, pancreas","intravenous, 1.85 MBq, 40 min",0.642 ± 0.094 %ID/g
CC[C@H](C)[C@H](NC(=O)[C@@H](Cc1c[nH]c2ccccc12)NC(=O)[C@@H]1CCCN1C(=O)[C@H](CCCCN)NC(=O)[C@H](CCCCN)NC(=O)CCNC(=O)CCNC(=O)CN1CCN(CC(=O)O)CCN(CC(=O)O)CCN(CC(=O)O)CC1)C(=O)N[C@@H](C[Si](C)(C)C)C(=O)O [gallium-68 labelled],ex vivo biodistribution,"nude mice, HT-29 xenograft, heart","90 min, added: levocabastine 0.5 µmol",0.1 ± 0.02 %ID/g
CC[C@H](C)[C@H](NC(=O)[C@H](CCCNC(=N)N)NC(=O)[C@H](CCCCN)NC(=O)[C@H](Cc1ccc(O)cc1)NC(=O)[C@H](CC(=O)O)NC(=O)[C@H](C)NC(=O)CNC(=O)CCOCCOCCOCCNC(=O)CN1CCN(CC(=O)O)CCN(CC(=O)O)CCN(CC(=O)O)CC1)C(=O)N[C@H](C(=O)N[C@@H](CC(C)C)C(=O)N[C@@H](CCCCN)C(=O)N[C@H](C(=O)N[C@@H](CC(N)=O)C(N)=O)C(C)C)[C@@H](C)O [copper-64 labelled],ex vivo gamma counting,"C57BL/6J male mice, B16-F10 tumour, lung","intravenous, 1.85 MBq, 100 min",1.64 ± 0.637 %ID/g
CC[C@H](C)[C@H](NC(=O)[C@H](CCCCN)NC(=O)CNC(=O)[C@H](CC(C)C)NC(=O)[C@H](Cc1ccccc1)NC(=O)[C@H](CCCCN)NC(=O)[C@H](CO)NC(=O)[C@H](Cc1ccccc1)NC(=O)[C@H](Cc1c[nH]c2ccccc12)NC(=O)[C@H](CCC(N)=O)NC(=O)[C@@H](NC(=O)[C@H](Cc1ccccc1)NC(=O)CCCCCNC(=O)CN1CCN(CC(=O)O)CCN(CC(=O)O)CCN(CC(=O)O)CC1)C(C)C)C(=O)N[C@@H](CCC(=O)O)C(=O)N1CCC[C@H]1C(=O)N[C@@H](CC(=O)O)C(=O)N[C@H](C(=O)N[C@@H](CO)C(=O)N[C@@H](CCC(N)=O)C(=O)N[C@H](C(=O)N[C@@H](CCC(N)=O)C(=O)N[C@@H](CC(=O)O)C(=O)N1CCC[C@H]1C(=O)N[C@@H](CC(N)=O)C(=O)N[C@@H](CC(=O)O)C(=O)N[C@@H](CCC(N)=O)C(=O)N[C@@H](Cc1ccc(O)cc1)C(=O)N[C@@H](CCC(=O)O)C(=O)N1CCC[C@H]1C(=O)N[C@@H](Cc1ccccc1)C(=O)O)C(C)C)C(C)C [copper-64 labelled],,"C57BL/6 mice, bone",added: LPS 3 mg/kg intratracheal,0.71 ± 0.07 %ID/g
CCCC[C@H]1C(=O)N(C)[C@@H](CCCC)C(=O)N[C@@H](CCCNC(=O)CN2CCN(CC(=O)O)CCN(CC(=O)O)CCN(CC(=O)O)CC2)C(=O)N[C@H](C(=O)NCC(N)=O)CSCC(=O)N[C@@H](Cc2ccc(O)cc2)C(=O)N(C)[C@@H](C)C(=O)N[C@@H](CC(N)=O)C(=O)N2CCC[C@H]2C(=O)N[C@@H](Cc2c[nH]cn2)C(=O)N[C@@H](CC(C)C)C(=O)N(C)CC(=O)N[C@@H](Cc2c[nH]c3ccccc23)C(=O)N[C@@H](CO)C(=O)N[C@@H](Cc2c[nH]c3ccccc23)C(=O)N1C [gallium-68 labelled],,"NOD/SCID mice with CHO-hPD-L1 xenograft, spleen",120 min post injection,4.47 ± 1.7 %ID/g

# Some of these lines once more:
SMILES,assay,test system,setting,tissue uptake
CCCC[C@H]1C(=O)N(C)[C@@H](CCCC)C(=O)N[C@@H](CCCNC(=O)CN2CCN(CC(=O)O)CCN(CC(=O)O)CCN(CC(=O)O)CC2)C(=O)N[C@H](C(=O)NCC(N)=O)CSCC(=O)N[C@@H](Cc2ccc(O)cc2)C(=O)N(C)[C@@H](C)C(=O)N[C@@H](CC(N)=O)C(=O)N2CCC[C@H]2C(=O)N[C@@H](Cc2c[nH]cn2)C(=O)N[C@@H](CC(C)C)C(=O)N(C)CC(=O)N[C@@H](Cc2c[nH]c3ccccc23)C(=O)N[C@@H](CO)C(=O)N[C@@H](Cc2c[nH]c3ccccc23)C(=O)N1C [gallium-68 labelled],,"NOD/SCID mice with CHO-hPD-L1 xenograft, spleen",120 min post injection,4.47 ± 1.7 %ID/g
